# Results collected from several papers.
# Every numbered part comes from another study and shows a few of its results, in no order. Positions count from the first letter of the parent shown.

# Study 1
# Target: Interferon regulatory factor 5, full length, phosphomimetic (IRF5, Homo sapiens, UniProt Q13568-2, residues 1-514, K96S/S451D/S453D/S456D/S462D)
# Method: protein-binding microarray
# Molecule type: double-stranded DNA, one strand shown
# Sample: in vitro
# Tested at: 250 nM
# Setting: 60-bp whole probe
# Together with: salmon DNA 0.4 mg/ml
# Baseline: random background probes
# Reading: higher = stronger binding
# All sequences stand within: GCCTAGCAC … GTCTTGATTCGCTTGACGCTGCTG
Oligonucleotide,log fluorescence [z-score]
ATGGCAAAAAAAAAAGATTTGTGCTAG,0.225
CACCAGCGAGGGCCCGGGAGGTGCTAG,-0.931
GACGGTTTCCTTTTGCTGACGTGCTAG,1.12
TTAGGGCTGGGTTTCGGTTAGTGCTAG,8.01
GCAGACTACCTATGAGTATCGTGCTAG,0.0934
GATGGACTGCTTTTCCTGACGTGCTAG,-0.00637
TTAGGTATCGGGTATTGGTTAGTGCTA,4.02
CTCATGTTACATTTATATCTGTGCTAG,0.692
TCATTTTTTTTCCTAATACTGTGCTAG,1.47
TCAGGCTTAGTTTGTCAAACTGTGCTA,-0.26
GGATCTTGCAGATGTCGCTGGGTGCTA,-0.222
TTATATCTCAGTCTCGATTAGTGCTAG,1.2
TACCCTTTGAAAGTTGTTTTAGTGCTA,0.533
TTAGGTATAGACTTTCGGTTAGTGCTA,9.15
TTACGACTGCTACTGCTTTAGTGCTAG,0.593
GACGGTATCGAACTGGGGACGTGCTAG,0.584
TTAGATTTCAGACTAGATTAGTGCTAG,0.412
TTAGCTTTCGACTATCGGTTAGTGCTA,9.87
TTAGGGATCCTTCTCCTTTAGTGCTAG,-0.417
GACGGGCTCGGTCTCGGGACGTGCTAG,-0.679
TTAGGACTGGGTTTCGGTCAGTGCTAG,7.57
TCACCTGTACATCTATGACTGTGCTAG,0.103
TTTGGTATCGGTTTCGGTTAGTGCTAG,11.6
TTGGGACTGGGGTATCGGTTAGTGCTA,2.04
GACGGTATCCTTTTCCTGTCGTGCTAG,0.469

# Study 2
# Target: RNA binding protein fox-1 homolog 2, RRM domain, GST-SBP tag (RBFOX2, Homo sapiens, UniProt O43251-10, residues 100-194)
# Method: RNA Bind-n-Seq
# Molecule type: RNA
# Sample: in vitro
# Tested at: 365 nM
# Setting: natural RNA segment, single round, ends assumed
# Baseline: no-protein control
# Reading: higher = stronger binding
# All sequences stand within: GGGAGUUCUACAGUCCGACGAUC … UGGAAUUCUCGGGUGCCAA
# Construct (chain): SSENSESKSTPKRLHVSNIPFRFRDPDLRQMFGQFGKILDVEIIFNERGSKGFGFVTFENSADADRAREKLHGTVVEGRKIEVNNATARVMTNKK
Oligonucleotide,RBNS enrichment (R)
AGUGCUAUGAAUGUAACUUAAAACUAUAAACUUGAAGUUUUUAUUCUAUAUGCCCCUUAAUAGACUGUGGUUCCUGACGCACACUGUUAGGUCAUUAUUUUGUUGUACCA,0.534
UCCUAAGAGCCCACCUGGAAGUCCACGUAUGCUAGAACUCUGGGCAGGGCCUAAUCUAGCUGAGGUCCAGAAAUACAAACCUGGAACUUCAUAUGGACCAAGUGGCCACA,0.287
GGGAACAGGAGGACUGGGCUUAGCACAGAGCCAUCAUCAUGUUCCCAAUUUGUGAAGAGACUCCUAACACUGCACUAACCCAUUUGUGUACAUACAUGGGCUCAGCCCUG,1.29
ACACCCUCCCCUCUUGUCUACUCACUCCUAGGGCGUUUCUUUGCCGAUUUUUGAAUGUGAUUUUAAAGAGUGGAAAAUGAGACUAUGCGUUUUUAUAAAAAAUGGUGCCU,0.892
UUCUGUGAAGCCCUUUGCCUGUAGAGCCAGCCUUGGUUGGACCUAUUGCCAGGAAUGUUUCAGCUGCAGUUGAAGAGCCUGACAAGUGAAGUUGUAAACACAGUGUGGUU,0.249
ACCCCCAGUUGUGAAAACUGCAGUUUAGCAGUGACCUCAGCAACCCCUCCUUUUUAUUUUUUCCUUUAAAAACAUUUCAGUUAAAUUAAGCUACUGAUUUGGAUUUGUUU,0.44
CAUUUCCUCCAUUCAUAGAGGGCAAUAAGCAAGACCUGUAGACCCAAAGCACAGGUUUAUUCUAAAGAAAACUUUUACGACAAUACUUUCUGUAUUGUCUAGGUUAAGCC,0.194
ACCUUUGCUUUUUAUGGAAAGCAUUACUUUAUUUAAAGAGACAGACAAUGACGCAUUUUAAUCUACCUUUGUCUUAAUUUACAGCAGGUUUUGUAUGAAUUUUUAACCUU,1.27
GGAGUUUGAAUGUGAUGAUUAAAAAAAGAGCCAAGGAAAAAGGUAGCUAGAAAAAAAGGUUGGCUCUCAUCAGCCUUAAUUUUGGAAAGCAGCUACUUACCCCUCAGAGA,1.73
GGCAGGAGUCAGGAGCCAGGGACUGUGCAGCCUGGAACCUCCAGUCACUGUGCCCAGCAGGGUGGGCUGUGCCCAGCAGGAGUCAGGCUAAGAAACGCCAGGUCUGCCUG,0.685
GCACUAGCAUCCAGAGUCAGAGUUGGUCUGGUGGCUCCAGCCCCACGUGGUAGGCUCCACACUGGGCCUCACAUGGAAUGGUUUCCUGCUCAGAUCCAGUCCACGGGUCC,0.551
CCAUUUGGAUGCGGCUCCAACCUUCCUUCCCUGCGUGUAAAUGAAUCCUGAACCUCGUACUUCACCUAAUGUUAGGGGCUUGCUCGUCUGCACAGGACUUAUUAACAAGU,0.668

# Study 3
# Target: Histone acetyltransferase KAT6A, winged helix 1, GST fusion (KAT6A, Homo sapiens, UniProt Q92794, residues 1-85)
# Method: protein binding microarray
# Molecule type: double-stranded DNA, one strand shown
# Sample: in vitro
# Tested at: not given
# Setting: 8-mer, flanks averaged, mean of 2 arrays, mostly near background
# Baseline: not given
# Reading: higher = stronger binding
# Residues (chain): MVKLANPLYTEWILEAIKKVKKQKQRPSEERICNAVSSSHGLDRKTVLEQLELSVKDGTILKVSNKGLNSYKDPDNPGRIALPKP
Oligonucleotide,E-score
GGACGCAA,0.142
GATCGTAC,-0.131
ATTCATCC,-0.122
AGATGCCC,-0.0776
ATCATGCC,-0.181
GGTCTCCA,-0.164
TATGAAGA,-0.188
AGCCTTGA,-0.156
GAGCGTAC,0.265
ACAGACAG,-0.0746
AACCGCGT,0.351
CTACCCTC,0.0222
CCCTGTTA,-0.162
AATGAATC,-0.185
GATTTTCC,-0.0129
ATCGTTCG,-0.0744
AGATCGCC,0.136
AGAATACT,-0.254
CATCCGTC,0.185
CAGGATTC,-0.154
GCCATGGC,0.0854
AAGGAACG,0.101
AGCCATCC,-0.0493
CCGGGTAG,0.0869
AGAGCTAT,-0.0762

# Study 4
# Target: Centromere-binding protein 1, full length, N-terminal tag (CBF1, Saccharomyces cerevisiae, UniProt P17106, residues 1-351)
# Sequence of UniProt P17106 (whole entry, looked up): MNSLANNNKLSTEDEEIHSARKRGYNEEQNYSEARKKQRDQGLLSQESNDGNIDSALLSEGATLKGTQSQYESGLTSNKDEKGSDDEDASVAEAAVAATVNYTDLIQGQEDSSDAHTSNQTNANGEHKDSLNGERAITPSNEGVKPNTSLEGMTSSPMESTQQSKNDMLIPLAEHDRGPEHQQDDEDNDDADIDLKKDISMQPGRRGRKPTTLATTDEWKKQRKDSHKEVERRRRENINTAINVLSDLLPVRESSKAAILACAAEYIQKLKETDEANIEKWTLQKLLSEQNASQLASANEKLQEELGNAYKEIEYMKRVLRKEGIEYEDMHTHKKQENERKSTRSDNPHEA
# Method: protein-binding microarray
# Molecule type: double-stranded DNA, one strand shown
# Sample: in vitro
# Tested at: 0.8 µM
# Setting: whole 60-bp probe, no competitor
# Reading: higher = stronger binding
# All sequences stand within: … GTCTTGATTCGCTTGACGCTGCTG
Oligonucleotide,fluorescence intensity [a.u.]
GAAAGAAATACTGCAGGTGAGGCTGAAAGGTCGTAG,520
GAACTTCTTTTAGTGCACGTACTTTTTGGACTGTAG,558
CTATTCAACAAACGTGATGTTGTATATGCCTGATTC,1360
CTAGCTACGTATACAGGTGAGTATATTCATGCGTTC,507
GAAGCTTCTTCTTGTGTGATGATGAGTTATTTTTAG,565
CTAATAATATAAACAAACGTGCGTATGCAAGACTTC,613
CTAGAGATAGTCTCAGGTGTAGTGGAAGCTGAATTC,537
GAATGCCTTGACATACACGTGTCTATTTCTTTTTAG,5120
GAAGGTGAAGTATAAGACGTGGTTGCAGCATCCTAG,497
CTATCTCGAAGTGGTCACGTGCGGGTCTAGGCCTTC,20500
CTATTGTTATATCATGTGAGCACAACTGTCGTTTTC,2030
CTACAAACAGTACCTCACGTCTTTTTTTTGAATTTC,537
GAAAGAAAAAGATATCAGCAGAATACAAAAAATTAG,524
GAACTATTGCGAAGTTTGGTGTCACATGGTTTGTAG,5660
CTACAAGAAATGAGAAACGTGGGAGATGTTCAATTC,554
GAAGGGAGAGCACAGCACGTTCTGCTTAAAAAATAG,634
CTATCATTTACTATTCTCGTGATATTTTAGTAGTTC,1130
GAAATGTAAGTTATTAACACCACCTTCTAGTTGTAG,504

# Study 5
# Target: CCNA2, cyclin fold, Cln2 fusion (human)
# Method: yeast growth competition, sequencing
# Sample: yeast
# Setting: strong parent motif
# Baseline: not given
# Reading: higher = stronger binding
# Parent: ORC1 docking peptide (human); PRARKRLELGNLG; partner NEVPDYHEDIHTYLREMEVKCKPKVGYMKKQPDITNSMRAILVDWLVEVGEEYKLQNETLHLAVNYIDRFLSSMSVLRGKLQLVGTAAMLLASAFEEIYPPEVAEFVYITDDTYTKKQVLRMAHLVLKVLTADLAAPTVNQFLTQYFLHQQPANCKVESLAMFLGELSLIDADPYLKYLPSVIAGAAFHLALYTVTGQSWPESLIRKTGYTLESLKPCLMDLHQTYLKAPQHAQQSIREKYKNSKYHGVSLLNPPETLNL
Change,normalised enrichment score
QRARKRLELGNLG [P1Q],4.42
PRARKRLELWNLG [G10W],5.6
PRARHRLELGNLG [K5H],1.81
PRARKELELGNLG [R6E],1.11
PRAEKRLELGNLG [R4E],0.95
PRARKRLELGNLM [G13M],6.2
PRARKRLCLGNLG [E8C],3.72
PRARKRLELGNLL [G13L],3.54
PAARKRLELGNLG [R2A],4.44
PRPRKRLELGNLG [A3P],1.88
PRARRRLEFGNLG [K5R L9F],6.95
PRARYRLELGNLG [K5Y],1.06
DRARKRLELGNLG [P1D],3.74
PRIRKRLELGNLG [A3I],1.06
PRARKRLALGNLG [E8A],3.7
PRARKRLPLGNLG [E8P],2.7
PRARTRLELGNLG [K5T],1.67
PCARKRLELGNLG [R2C],3.7
PRARKRYELGNLG [L7Y],0.252
PRARKRLELGSLG [N11S],4.66
PRARKILELGNLG [R6I],2.03
PRARKRLELGNWG [L12W],5.29
PRARKRVELGNLG [L7V],0.181
PRARKRLELGNCG [L12C],5.51
KRARKRLELGNLG [P1K],4.9
